# Experimental data gathered from unrelated publications.
# Protocols differ between the studies behind these lines. Numbers after ± are the reported error.
# AKR1C2: Aldo-keto reductase family 1 member C2 (AKR1C2, Homo sapiens, UniProt P52895)
# Chain of UniProt P52895 (whole entry, looked up): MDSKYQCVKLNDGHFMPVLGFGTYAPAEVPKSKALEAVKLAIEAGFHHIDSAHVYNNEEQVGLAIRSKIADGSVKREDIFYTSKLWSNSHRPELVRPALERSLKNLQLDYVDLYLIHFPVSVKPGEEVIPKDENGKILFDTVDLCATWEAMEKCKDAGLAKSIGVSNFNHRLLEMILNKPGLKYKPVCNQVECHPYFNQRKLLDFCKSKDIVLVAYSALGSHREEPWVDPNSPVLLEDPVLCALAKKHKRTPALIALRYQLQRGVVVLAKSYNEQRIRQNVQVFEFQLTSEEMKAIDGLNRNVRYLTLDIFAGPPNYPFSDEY
# hdac10: Polyamine deacetylase HDAC10 (hdac10, Danio rerio, UniProt F1QCV2)
# Chain of UniProt F1QCV2 (whole entry, looked up): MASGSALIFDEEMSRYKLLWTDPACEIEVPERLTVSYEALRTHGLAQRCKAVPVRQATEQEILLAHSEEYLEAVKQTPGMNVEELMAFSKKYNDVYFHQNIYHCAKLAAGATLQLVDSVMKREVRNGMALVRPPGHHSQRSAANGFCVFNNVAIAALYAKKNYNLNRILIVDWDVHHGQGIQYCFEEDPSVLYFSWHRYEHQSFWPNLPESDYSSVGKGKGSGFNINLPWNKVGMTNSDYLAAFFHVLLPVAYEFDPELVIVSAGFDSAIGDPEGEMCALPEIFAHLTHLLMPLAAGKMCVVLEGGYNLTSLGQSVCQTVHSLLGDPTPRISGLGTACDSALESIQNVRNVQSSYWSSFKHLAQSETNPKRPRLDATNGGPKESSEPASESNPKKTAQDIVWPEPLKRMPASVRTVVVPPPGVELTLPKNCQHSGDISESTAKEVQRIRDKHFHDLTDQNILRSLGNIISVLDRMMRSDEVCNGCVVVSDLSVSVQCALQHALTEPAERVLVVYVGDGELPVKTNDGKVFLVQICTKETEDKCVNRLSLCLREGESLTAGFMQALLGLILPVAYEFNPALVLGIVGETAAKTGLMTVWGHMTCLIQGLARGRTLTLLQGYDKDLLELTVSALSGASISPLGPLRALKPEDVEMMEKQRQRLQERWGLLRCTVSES
# Sigmar1: Sigma non-opioid intracellular receptor 1 (Sigmar1, Rattus norvegicus, UniProt Q9R0C9)
# Chain of UniProt Q9R0C9 (whole entry, looked up): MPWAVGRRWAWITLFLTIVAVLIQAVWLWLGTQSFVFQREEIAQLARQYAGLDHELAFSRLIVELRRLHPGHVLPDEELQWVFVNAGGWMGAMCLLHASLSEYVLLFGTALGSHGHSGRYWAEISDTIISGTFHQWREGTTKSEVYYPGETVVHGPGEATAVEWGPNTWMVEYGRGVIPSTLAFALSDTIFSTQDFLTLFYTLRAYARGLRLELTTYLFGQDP
# CDK4 with cyclin D3: Cyclin-dependent kinase 4, with cyclin D3 (CDK4, Homo sapiens, UniProt P11802)
# Chain of UniProt P11802 (whole entry, looked up): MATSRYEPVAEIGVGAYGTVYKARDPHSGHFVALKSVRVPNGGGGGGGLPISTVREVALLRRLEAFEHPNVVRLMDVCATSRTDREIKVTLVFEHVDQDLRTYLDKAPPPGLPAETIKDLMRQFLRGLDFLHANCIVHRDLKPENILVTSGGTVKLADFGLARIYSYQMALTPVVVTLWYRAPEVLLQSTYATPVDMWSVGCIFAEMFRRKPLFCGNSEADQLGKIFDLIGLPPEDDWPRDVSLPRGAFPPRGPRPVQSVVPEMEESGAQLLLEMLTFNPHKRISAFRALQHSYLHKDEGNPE
# ELANE: Neutrophil elastase (ELANE, Homo sapiens, UniProt P08246)
# Chain of UniProt P08246 (whole entry, looked up): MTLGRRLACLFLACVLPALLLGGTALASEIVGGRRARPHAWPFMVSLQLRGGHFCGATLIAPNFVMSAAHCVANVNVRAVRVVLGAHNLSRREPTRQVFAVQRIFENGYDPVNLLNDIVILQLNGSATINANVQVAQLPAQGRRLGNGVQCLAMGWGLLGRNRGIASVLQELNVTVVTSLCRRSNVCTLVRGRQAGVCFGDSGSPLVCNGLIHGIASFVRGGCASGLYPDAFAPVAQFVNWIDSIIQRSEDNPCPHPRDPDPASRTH
# Ectonucleoside triphosphate diphosphohydrolase 3: Ectonucleoside triphosphate diphosphohydrolase 3 (Homo sapiens, UniProt O75355)
# Chain of UniProt O75355 (whole entry, looked up): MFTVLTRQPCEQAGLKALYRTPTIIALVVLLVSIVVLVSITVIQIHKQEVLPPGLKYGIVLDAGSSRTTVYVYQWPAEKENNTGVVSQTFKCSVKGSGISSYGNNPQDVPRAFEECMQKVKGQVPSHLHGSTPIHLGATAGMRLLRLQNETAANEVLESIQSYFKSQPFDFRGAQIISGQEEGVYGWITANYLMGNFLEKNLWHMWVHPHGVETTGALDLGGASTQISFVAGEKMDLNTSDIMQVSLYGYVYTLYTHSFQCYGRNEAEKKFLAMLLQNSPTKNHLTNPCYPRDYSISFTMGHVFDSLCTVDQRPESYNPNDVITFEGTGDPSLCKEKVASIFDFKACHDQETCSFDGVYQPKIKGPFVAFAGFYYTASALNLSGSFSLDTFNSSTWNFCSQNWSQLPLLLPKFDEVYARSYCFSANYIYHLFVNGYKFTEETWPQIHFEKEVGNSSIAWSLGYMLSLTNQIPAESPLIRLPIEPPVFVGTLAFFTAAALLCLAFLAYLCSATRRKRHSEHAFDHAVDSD
# Tripartite terminase subunit 3 C-terminal nuclease domain: Tripartite terminase subunit 3, C-terminal nuclease domain (Human betaherpesvirus 5, UniProt P16732)
# Chain of UniProt P16732 (whole entry, looked up): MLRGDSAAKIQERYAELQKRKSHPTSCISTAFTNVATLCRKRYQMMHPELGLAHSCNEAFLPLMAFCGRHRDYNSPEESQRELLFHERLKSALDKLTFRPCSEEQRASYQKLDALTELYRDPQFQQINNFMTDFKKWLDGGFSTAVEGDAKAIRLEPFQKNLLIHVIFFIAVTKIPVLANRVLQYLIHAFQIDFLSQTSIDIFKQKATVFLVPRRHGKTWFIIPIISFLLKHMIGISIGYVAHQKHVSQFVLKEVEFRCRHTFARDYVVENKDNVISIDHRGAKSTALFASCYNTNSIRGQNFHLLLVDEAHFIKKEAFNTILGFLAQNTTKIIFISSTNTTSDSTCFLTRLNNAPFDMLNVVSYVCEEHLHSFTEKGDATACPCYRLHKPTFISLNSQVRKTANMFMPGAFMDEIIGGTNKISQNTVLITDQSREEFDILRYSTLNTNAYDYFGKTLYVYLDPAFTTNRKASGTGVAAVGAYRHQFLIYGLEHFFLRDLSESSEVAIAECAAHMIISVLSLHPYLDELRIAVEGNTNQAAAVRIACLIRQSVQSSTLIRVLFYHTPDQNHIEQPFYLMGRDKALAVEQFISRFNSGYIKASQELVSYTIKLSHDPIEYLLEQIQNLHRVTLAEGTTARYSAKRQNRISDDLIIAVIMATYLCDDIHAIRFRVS
# PTK6: Protein-tyrosine kinase 6 (PTK6, Homo sapiens, UniProt Q13882)
# Chain of UniProt Q13882 (whole entry, looked up): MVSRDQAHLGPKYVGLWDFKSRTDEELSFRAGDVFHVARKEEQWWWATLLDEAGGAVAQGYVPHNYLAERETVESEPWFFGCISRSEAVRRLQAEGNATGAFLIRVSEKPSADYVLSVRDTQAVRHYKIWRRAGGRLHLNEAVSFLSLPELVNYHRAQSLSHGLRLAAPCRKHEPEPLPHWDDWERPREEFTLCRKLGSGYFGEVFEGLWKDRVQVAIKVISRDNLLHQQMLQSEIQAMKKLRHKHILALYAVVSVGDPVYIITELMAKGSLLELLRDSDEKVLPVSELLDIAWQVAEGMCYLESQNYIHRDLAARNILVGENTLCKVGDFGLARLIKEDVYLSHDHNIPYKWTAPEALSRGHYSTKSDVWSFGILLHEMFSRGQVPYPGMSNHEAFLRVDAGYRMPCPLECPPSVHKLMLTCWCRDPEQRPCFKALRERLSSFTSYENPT
# PDK1: [Pyruvate dehydrogenase (acetyl-transferring)] kinase isozyme 1, mitochondrial (PDK1, Homo sapiens, UniProt Q15118)
# Chain of UniProt Q15118 (whole entry, looked up): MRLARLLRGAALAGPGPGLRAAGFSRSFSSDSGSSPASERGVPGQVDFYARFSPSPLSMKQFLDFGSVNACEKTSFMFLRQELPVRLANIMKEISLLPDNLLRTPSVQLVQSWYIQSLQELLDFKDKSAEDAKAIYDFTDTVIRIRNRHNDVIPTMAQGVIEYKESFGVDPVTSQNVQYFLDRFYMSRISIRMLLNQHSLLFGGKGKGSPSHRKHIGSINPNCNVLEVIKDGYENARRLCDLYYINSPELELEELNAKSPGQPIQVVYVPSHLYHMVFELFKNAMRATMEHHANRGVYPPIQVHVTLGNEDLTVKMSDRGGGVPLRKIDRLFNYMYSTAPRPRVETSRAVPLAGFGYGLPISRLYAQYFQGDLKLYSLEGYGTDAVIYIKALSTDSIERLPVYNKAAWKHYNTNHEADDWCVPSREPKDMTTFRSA
# AMY2: Pancreatic alpha-amylase (AMY2, Sus scrofa, UniProt P00690)
# Chain of UniProt P00690 (whole entry, looked up): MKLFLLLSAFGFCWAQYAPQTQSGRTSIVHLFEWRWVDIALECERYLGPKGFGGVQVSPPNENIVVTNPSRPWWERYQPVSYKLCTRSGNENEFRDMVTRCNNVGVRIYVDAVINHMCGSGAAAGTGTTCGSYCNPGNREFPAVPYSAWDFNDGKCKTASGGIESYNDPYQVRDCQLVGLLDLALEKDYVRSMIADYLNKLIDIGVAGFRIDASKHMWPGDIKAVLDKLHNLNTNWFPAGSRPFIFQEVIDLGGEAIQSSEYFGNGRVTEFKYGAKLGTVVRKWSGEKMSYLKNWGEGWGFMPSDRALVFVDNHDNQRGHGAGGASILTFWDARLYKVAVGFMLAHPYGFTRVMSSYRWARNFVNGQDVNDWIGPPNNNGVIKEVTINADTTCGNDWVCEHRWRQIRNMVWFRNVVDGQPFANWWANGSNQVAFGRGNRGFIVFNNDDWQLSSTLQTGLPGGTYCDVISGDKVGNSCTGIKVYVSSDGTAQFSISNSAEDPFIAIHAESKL
# Chain of UniProt P00591 (whole entry, looked up): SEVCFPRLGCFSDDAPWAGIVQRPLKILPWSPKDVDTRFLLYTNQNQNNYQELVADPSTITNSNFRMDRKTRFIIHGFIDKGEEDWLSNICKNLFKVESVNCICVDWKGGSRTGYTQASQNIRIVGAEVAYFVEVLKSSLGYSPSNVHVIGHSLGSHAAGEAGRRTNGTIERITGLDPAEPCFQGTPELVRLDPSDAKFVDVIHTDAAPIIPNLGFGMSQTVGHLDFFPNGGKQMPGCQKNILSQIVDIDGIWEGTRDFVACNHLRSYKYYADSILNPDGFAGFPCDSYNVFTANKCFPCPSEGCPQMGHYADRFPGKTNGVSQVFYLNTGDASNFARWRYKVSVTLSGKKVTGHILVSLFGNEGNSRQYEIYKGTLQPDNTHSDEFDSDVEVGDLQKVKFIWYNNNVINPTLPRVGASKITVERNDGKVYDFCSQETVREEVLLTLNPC
Structure (SMILES),target,test,test system,setting,inhibition
COc1ccc2c(c1)CC[C@@H]1[C@@H]2CC[C@@]2(C)C(=O)CC[C@@H]12,AKR1C2,"enzyme activity, inhibitor, absorbance",,"100 µM, pH 9",35%
O=C(O[C@@H]1Cc2c(O)cc(O)cc2O[C@@H]1c1cc(O)c(O)c(O)c1)c1cc(O)c(O)c(O)c1,"Pancreatic triacylglycerol lipase (PNLIP, Sus scrofa, UniProt P00591)","enzyme activity, inhibitor",,10 µM,93.8%
CC[C@H](C)[C@H](NC(=O)CNC(=O)[C@H](CCCCNC(C)=O)NC(=O)[C@H](Cc1ccc(O)cc1)NC(=O)[C@H](C)NC(=O)[C@H](CC(C)C)NC(=O)[C@H](CCC(N)=O)NC(=O)[C@H](Cc1ccc(O)cc1)NC(=O)[C@H](CC(C)C)NC(=O)[C@H](CCC(=O)O)NC(=O)[C@H](CCSC)NC(=O)[C@H](Cc1c[nH]c2ccccc12)NC(=O)[C@@H](NC(=O)[C@H](CC(C)C)NC(=O)[C@H](CCCCNC(=O)CCc1cn(CCOCCOCCOCCOCCOCCOCCOCCOCCNC(=O)CCC(=O)NCc2ccc(CN3C(=O)[C@H]4CC(=O)N[C@@H](CCCNC(=N)N)C(=O)NCC(=O)N[C@@H](CC(=O)O)C(=O)NC[C@H]3C(=O)N4)cc2)nn1)NC(C)=O)[C@@H](C)O)C(N)=O,"Vascular endothelial growth factor receptor 1, extracellular domain D1–D7 (FLT1, Homo sapiens, UniProt P17948)","VEGF165 binding, solid-phase competition binding",,"500 µM, added: biotinylated VEGF165",57 ± 10%
O=c1[nH]c2ccccc2n1CCCCCN1CCN(c2ccc(F)cc2)CC1,"5-hydroxytryptamine receptor 7 (HTR7, Homo sapiens, UniProt P34969)",cAMP production,HEK293 expressing h5-HT7R,concentration not given,~75%
COc1ccc(C(=O)NO)cc1NC(=O)c1ccc(Cl)cc1,hdac10,,,0.1 µM,14%
C/C(=N\OCCCCN1CCCCC1)c1cccc(C(F)(F)F)c1,Sigmar1,radioligand binding,,10 µM,99.4%
Nc1ccccc1NC(=O)c1ccc(Nc2nccc(-c3cn(C4CCCCC4)nn3)n2)cc1,CDK4 with cyclin D3,"enzyme activity, inhibitor, TR-FRET",,5 µM,13.7%
COc1cc(O)c(C(=O)/C=C/c2ccccc2)c(O)c1OC,α-glucosidase (Saccharomyces cerevisiae),inhibitor,,"10 µg/mL, added: pNPG",37.2 ± 2.8%
O=C(/C=C/c1cccc(Cl)c1)NO,hdac10,,,0.1 µM,18%
O=C1CC(=O)c2cc(S(=O)(=O)n3cnc4ccccc43)ccc21,ELANE,"enzyme activity, inhibitor, fluorescence",,1 µM,19.8%
O=c1c(-c2nc3ccccc3s2)cc2c(n1NS(=O)(=O)c1ccc(Cl)cc1)CCCCCC2,"Ubiquitin carboxyl-terminal hydrolase 7 (USP7, Homo sapiens, UniProt Q93009)","enzyme activity, inhibitor, fluorescence",,0.1 µg/mL,3.15%
COc1cc(/C=N\C(=S)NNC(=O)CC2C(=O)c3ccccc3C2=O)cc(OC)c1OC,ELANE,"enzyme activity, inhibitor, fluorescence",,10 µM,17.3%
CC(C)(O)CC(=O)CC(C(=O)O)C1CC[C@]2(C)C1CCC1[C@@]3(C)CC[C@H](O)C(C)(C)C3CC[C@]12C (stereo partly drawn),α-glucosidase (yeast),,,"50 µM, added: PNPG substrate",44.3 ± 3.75%
O=C(c1cccc(S(=O)(=O)N2CCOCC2)c1)N1CCOCC1,Ectonucleoside triphosphate diphosphohydrolase 3,"enzyme activity, inhibitor, absorbance",,100 µM,37%
CC(=O)Nc1cc(COc2c(Cl)cc(CC(N)C(=O)O)cc2Cl)c2oc(-c3ccccc3)nc2c1 (stereo not drawn),"Large neutral amino acids transporter small subunit 3 (Homo sapiens, UniProt O75387)",leucine uptake,Xenopus oocytes,"1 and 10 µM, 30 min, added: L-[14C]leucine 50 µM",no inhibition
COc1ccc(-c2cc(=O)oc3cc(OCC(=O)c4ccc(-c5ccccc5)cc4)ccc23)cc1,"Programmed cell death 1 ligand 1, with PD-1 (CD274, Homo sapiens, UniProt Q9NZQ7)","PD-1/PD-L1 binding, inhibitor, TR-FRET",,25 µM,≥ 20%
O=C(NC1CCCCC1)c1nc(Cl)c2cccnc2c1O,Tripartite terminase subunit 3 C-terminal nuclease domain,"endonuclease activity, ELISA",,10 µM,31 ± 8.5%
CN(CCON=C(c1ccc(C(F)(F)F)cc1)C(F)(F)F)Cc1ccccc1 (mixture of isomers),Sigmar1,radioligand binding,,10 µM,102%
COc1cccc(Nc2ncnc3[nH]c4cc(Br)ccc4c23)c1,PTK6,"enzyme activity, inhibitor, ADP detection",,2 µM,26.5%
C[C@@]12CC[C@@H]3c4cc(Br)c(O)cc4CC[C@H]3[C@@H]1CCC2=O,AKR1C2,"enzyme activity, inhibitor, absorbance",,"100 µM, pH 9",65%
CC(C)Cn1cc(-c2ccnc(Nc3ccc(OCCCCCCC(=O)NO)cc3)n2)nn1,CDK4 with cyclin D3,"enzyme activity, inhibitor, TR-FRET",,5 µM,48.9%
CCC(=O)N(C)c1ccc(Cl)c(Cl)c1,"C-C chemokine receptor type 1 (CCR1, Homo sapiens, UniProt P32246)","ligand displacement, radioligand",,10 µM,16.2%
Nc1ncnc2c1ncn2C1OC(COc2ccc(CCC(=O)c3ccccc3C(=O)O)cc2)C(O)C1O (stereo not drawn),"2-succinylbenzoate--CoA ligase (menE, Escherichia coli, UniProt P37353)","enzyme activity, inhibitor, MenE–MenB coupled",,concentration not given,no inhibition
O=P(O)(O)C(NCc1cccc(O)c1O)c1ccccc1 (stereo not drawn),"1-deoxy-D-xylulose 5-phosphate reductoisomerase (Escherichia coli K-12, UniProt P45568)","enzyme activity, inhibitor, absorbance",,50 µM,96.8%
O=[N+]([O-])c1ccc2c(c1)S(=O)(=O)C=C2,"Signal transducer and activator of transcription 3 (STAT3, Homo sapiens, UniProt P40763)",IL6-induced phosphorylation,HepG2,"10 µM, added: IL6",~75%
Cc1ccc(NC(=O)c2cccc(S(=O)(=O)N3CCOCC3)c2)c(C)c1,"Ectonucleoside triphosphate diphosphohydrolase 8 (Homo sapiens, UniProt Q5MY95)","enzyme activity, inhibitor, absorbance",,100 µM,39%
O=C(c1ccc(Oc2ccc(Cl)cc2)c([N+](=O)[O-])c1)C(Cl)Cl,PDK1,"kinase activity, inhibitor, Kinase-Glo",,"10 µM, added: E2 subunit",51.3%
CN(C)c1ccc(C(=O)NCc2ccc(C(=O)NO)cc2)cc1,hdac10,,,1 µM,42%
C#Cc1cccc(Nc2ncnc3[nH]c4cc(Br)ccc4c23)c1,PTK6,"enzyme activity, inhibitor, ADP detection",,2 µM,19.3%
O=C(/C=C/c1ccc2c(c1)OCCO2)c1cccs1,"Amine oxidase [flavin-containing] B (MAOB, Homo sapiens, UniProt P27338)","enzyme activity, inhibitor, fluorescence",,1 µM,72.8%
CC(C)Oc1ccc(C(=O)C(Cl)Cl)cc1[N+](=O)[O-],PDK1,"enzyme activity, inhibitor, ATP luminescence",,10 µM,22.3%
COc1ccc(-c2nc(CN3CCN(C(=O)c4ccc(C(C)(C)C)cc4)CC3)no2)cc1,"Sodium channel protein type 9 subunit alpha (SCN9A, Homo sapiens, UniProt Q15858)","sodium current, whole-cell patch clamp","HEK293, stable",20 µM,3 ± 1%
C/C(=N\OCCN1CCCCC1)c1ccccc1C(F)(F)F,Sigmar1,radioligand binding,,1 µM,73.6%
O=C(Nc1ccc(C(F)(F)F)cc1)Nc1nc2ccccc2s1,"Beta-glucuronidase (uidA, Escherichia coli, UniProt P05804)","enzyme activity, inhibitor, absorbance",,100 µM,58.2%
COc1ccc2c(c1Cl)CC[C@@H]1[C@@H]2CC[C@@]2(C)C(=O)CC[C@@H]12,AKR1C2,"enzyme activity, inhibitor, absorbance",,"100 µM, pH 9",78.8%
COc1cc2c(Nc3ccc(NC(=O)c4ccccc4)cc3)ncnc2cc1OCCCN1CCOCC1,"Mitotic checkpoint serine/threonine-protein kinase BUB1 beta (BUB1B, Homo sapiens, UniProt O60566)","kinase activity, immunoprecipitate kinase","HeLa, mitotic",concentration not given,no inhibition
C[C@]12CCC[C@H]1[C@@H]1CCc3c(cc(I)c(O)c3I)[C@H]1CC2,AKR1C2,"enzyme activity, inhibitor, absorbance",,"10 µM, pH 9",22.9%
Cc1cccc(/C=C/C(=O)c2cnn(-c3ccccc3)c2C)c1,AMY2,"enzyme activity, inhibitor, absorbance",,260 µM,31.8%
O=[N+]([O-])c1cccc(-n2c(-c3ccc(Cl)cc3)cs/c2=N/N=C/c2ccc(N3CCOCC3)cc2)c1,"Carbonic anhydrase 2 (CA2, Bos taurus, UniProt P00921)","enzyme activity, inhibitor, absorbance",,500 µM,69.8%
O=C1CSC(c2cccc(Br)c2)N1c1cc(Cl)ccc1O (stereo not drawn),"ACTR3/Actin-related protein 2 (Homo sapiens, UniProt P61158+P61160)","actin polymerization, pyrenyl-actin",,"20 µM, added: 300 nM ActA",inhibited
COc1cc(/C=C/C(=O)NO)ccc1OCc1ccccc1,hdac10,,,1 µM,30%
C/C(=N\OCCN1CCOCC1)c1cccc(C(F)(F)F)c1,Sigmar1,radioligand binding,,10 µM,86.7%
COc1cc(C(=O)NC2CCC(N3CCN(CC4CCC5(CCCC5)C4)CC3)CC2)c(F)cc1Nc1ncc2c(n1)N(C1CCCC1(F)F)CC(F)(F)C(=O)N2C (stereo not drawn),"Tyrosine-protein kinase JAK1 (JAK1, Homo sapiens, UniProt P23458)","cell-free assay, TR-FRET",,10 µM,0.9%
C/C(=N\OCCN(C)Cc1ccccc1)c1cccc(C(F)(F)F)c1,Sigmar1,radioligand binding,,10 µM,67.9%
O=C(NC1CCCC1)c1cccc(S(=O)(=O)NC2CCCC2)c1,Ectonucleoside triphosphate diphosphohydrolase 3,"enzyme activity, inhibitor, absorbance",,100 µM,9%
COc1cc2c(cc1I)[C@H]1CC[C@@]3(C)C(=O)CC[C@H]3[C@@H]1CC2,AKR1C2,"enzyme activity, inhibitor, absorbance",,"100 µM, pH 9",5%
COc1ccc(C(=O)NO)cc1NC(=O)c1ccc(-c2ccccc2)cc1,hdac10,,,0.1 µM,< 10%
C[C@]12CC[C@@H]3c4ccc(O)cc4CC[C@H]3[C@@H]1CCC2=O,AKR1C2,"enzyme activity, inhibitor, absorbance",,"100 µM, pH 9",50%
CC(=O)OC1CCC2(C)C(CCC3(C)C2CCC2C(C4=CC(C=C(C)C)OC4=O)CCC23C)C1(C)C (stereo not drawn),AMY2,"enzyme activity, inhibitor, absorbance",,250 µM,26.5%
O=C(NO)c1cc2c(Cl)cccc2s1,hdac10,,,1 µM,56%
C/C(=N\OCCN1CCOCC1)c1ccccc1C(F)(F)F,Sigmar1,radioligand binding,,1 µM,54.4%
O=C(/C=C/c1ccc2ccccc2c1)NO,hdac10,,,0.1 µM,46%
O=C(O[C@H](CO)C(F)(F)F)N1C[C@@H]2[C@H](C1)[C@H]2c1ccn(-c2ccc(F)nc2)n1,"Monoacylglycerol lipase ABHD6 (Abhd6, Mus musculus, UniProt Q8R2Y0)",ABPP,mouse brain lysate,0.2 µmol/L,no inhibition
COc1ccc(NC(=O)c2cn(Cc3ccc(F)cc3)cc(O)c2=O)cc1,Tripartite terminase subunit 3 C-terminal nuclease domain,"endonuclease activity, inhibitor, ELISA",,20 µM,7%

# Repeated from above:
Structure (SMILES),target,test,test system,setting,inhibition
O=C(NO)c1cc2c(Cl)cccc2s1,hdac10,,,1 µM,56%
C/C(=N\OCCN1CCOCC1)c1ccccc1C(F)(F)F,Sigmar1,radioligand binding,,1 µM,54.4%
O=C(/C=C/c1ccc2ccccc2c1)NO,hdac10,,,0.1 µM,46%
O=C(O[C@H](CO)C(F)(F)F)N1C[C@@H]2[C@H](C1)[C@H]2c1ccn(-c2ccc(F)nc2)n1,"Monoacylglycerol lipase ABHD6 (Abhd6, Mus musculus, UniProt Q8R2Y0)",ABPP,mouse brain lysate,0.2 µmol/L,no inhibition
COc1ccc(NC(=O)c2cn(Cc3ccc(F)cc3)cc(O)c2=O)cc1,Tripartite terminase subunit 3 C-terminal nuclease domain,"endonuclease activity, inhibitor, ELISA",,20 µM,7%
